# Experimental data of several laboratories.
# Compare with care: the assays were run in different laboratories. Numbers after ± are the reported error.
SMILES,target or system,assay,test system,conditions,how to read,endpoint,result
COC(=O)C1=CO[C@@H](O)[C@@H]2C(Cn3cc(CON4C(=O)c5ccccc5C4=O)nn3)=CC[C@H]12,SK-N-SH,"neuroprotection, MTT",,"0.6 µM, 24 h, added: 250 µM H2O2",,viability,77.2 ± 1.8%
CSC(=NNC(=O)c1ccc([N+](=O)[O-])cc1)SC,Mycobacterium,,An5,,,MIC,6.2 µg/mL
COC(=O)C1=CO[C@@H](OC(C)=O)[C@@H]2C(Cn3cc(-c4ccc(F)cc4)nn3)=CC[C@H]12,SK-N-SH,"neuroprotection, MTT",,"0.075 µM, 24 h, added: 250 µM H2O2",,viability,70.9 ± 1.5%
NC[C@@H]1O[C@H](O[C@H]2[C@@H](O)[C@H](O[C@@H]3[C@@H](O)[C@H](N)C[C@H](N)[C@H]3O[C@H]3O[C@@H]4COCO[C@H]4[C@H](O)[C@H]3N)O[C@@H]2CO)[C@H](N)[C@@H](O)[C@@H]1O,ribosome with mitochondrial A site,"luciferase translation, cell-free translation",,,,IC50,325 ± 124 µg/mL
CCCCCCCCC(=O)NCc1ccc(O)c(OC)c1,mAb 6-AT6,"antibody binding, indirect competitive ELISA",,added: coating antigen 2-OVA,,IC50,> 4 µg/mL
CC(C)CC(O)(CC(C)C)c1cn(C(=O)N2CCCC2)nn1,mouse T-cells,"SILAC proteomics, measured: LARP1",,"1 nM, 6 h, unit not given",reference: DMSO,protein level,1.08 ± 0.15
COc1ccc(-n2cc(C(=O)N3C[C@]4(OC(=O)c5ccccc5NC(C)=O)CC[C@H](OC)[C@@]56[C@@H]4C[C@@H]([C@@H]35)[C@@]3(O)C[C@H](OC)[C@H]4C[C@@H]6[C@]3(O)[C@H]4OC)nn2)cc1,,immunohistochemistry,"ICR mouse, LPS-induced lung injury, lung tissue","oral, 5, 10, 15 mg/kg",,CD68-positive macrophages,decreased
CC[C@H](C)[C@@H]1NC(=O)CNC(=O)[C@@H]2Cc3c([nH]c4ccc(OC(=O)OCc5ccc(NC(=O)[C@H](CCCNC(N)=O)NC(=O)[C@@H](NC(=O)CCc6cn(CC(=O)N[C@H](Cc7ccccc7)C(=O)N[C@H]7CSSC[C@@H](C(=O)N[C@H](C(=O)O)[C@@H](C)O)NC(=O)[C@H]([C@@H](C)O)NC(=O)[C@H](CCCCN)NC(=O)[C@@H](Cc8c[nH]c9ccccc89)NC(=O)[C@H](Cc8ccc(O)cc8)NC7=O)nn6)C(C)C)cc5)cc34)SC[C@H](NC(=O)CNC1=O)C(=O)N[C@@H](CC(N)=O)C(=O)N1C[C@H](O)C[C@H]1C(=O)N[C@@H]([C@@H](C)[C@@H](O)CO)C(=O)N2,AR-42J,"cell growth or viability, MTS",,,,EC50,2.3 nM
CCCCCCCCOCc1cn(CC2=CC[C@@H]3C(C(=O)OC)=CO[C@@H](O)[C@H]23)nn1,SK-N-SH,"neuroprotection, MTT",,"0.6 µM, 24 h, added: 250 µM H2O2",,viability,65.9 ± 1.1%
COCOC[C@H]1O[C@H](O[C@H]2[C@H](O[C@@H]3O[C@H](CO)[C@@H](O[C@H]4O[C@@H](CN)[C@@H](O)[C@H](O)[C@H]4N)[C@H]3O)[C@@H](O)[C@H](N)C[C@@H]2N)[C@H](N)[C@@H](O)[C@@H]1O,ribosome with mitochondrial A site,"luciferase translation, cell-free translation",,,,IC50,505 ± 107 µg/mL

# Some of these lines once more:
SMILES,target or system,assay,test system,conditions,how to read,endpoint,result
COC(=O)C1=CO[C@@H](OC(C)=O)[C@@H]2C(Cn3cc(-c4ccc(F)cc4)nn3)=CC[C@H]12,SK-N-SH,"neuroprotection, MTT",,"0.075 µM, 24 h, added: 250 µM H2O2",,viability,70.9 ± 1.5%
